Experimental data from different studies.
Compare with care: the assays were run in different laboratories. ± marks the error that the study gave.

Compound	assay	test system	conditions	scale	measurement	value
CC[C@H](C)C(=O)N1CCC(NC(=O)Nc2ccc(OC(F)(F)F)c(F)c2)CC1	–	human, plasma	oral, 8 mg, single dose, fasted, healthy volunteers	–	AUC(0-t)	3120 ng·h/mL
CN[C@](C)(C[18F])C(=O)O	–	SCID mouse U87 xenograft, brain	60 min, post injection	–	tissue uptake	0.3 ± 0.1 %ID/g
CN(C)c1ccc(OC(=O)NC2CCCCC2)cc1-c1ccccc1	–	rat liver S9 fraction	together with: NADPH-regenerating system	–	log hydrolysis rate constant	-0.86
CC(C)C[C@H](NC(=O)[C@H](CCCCN)NC(=O)[C@H](CCC(=O)O)NC(=O)[C@H](C)NC(=O)[C@@H](NC(=O)[C@H](CCCCN)NC(=O)[C@H](CC(=O)O)NC(=O)[C@H](Cc1ccc(O)cc1)NC(=O)[C@H](Cc1ccccc1)NC(=O)[C@H](C)NC(=O)[C@H](CCCCN)NC(=O)[C@H](CC(C)C)NC(=O)[C@H](Cc1c[nH]c2ccccc12)NC(=O)[C@@H](N)CC(=O)O)C(C)C)C(=O)N[C@@H](CCCCN)C(=O)N[C@@H](CCC(=O)O)C(=O)N[C@@H](C)C(=O)N[C@@H](Cc1ccccc1)C(=O)N1CCC[C@H]1C(=O)N[C@@H](CC(=O)O)C(=O)N[C@@H](Cc1c[nH]c2ccccc12)C(=O)N[C@@H](C)C(=O)N[C@@H](CCCCN)C(=O)N[C@@H](C)C(=O)N[C@@H](C)C(=O)N[C@@H](Cc1ccc(O)cc1)C(=O)N[C@@H](CC(=O)O)C(=O)N[C@@H](CCCCN)C(=O)N[C@@H](C)C(=O)N[C@@H](C)C(=O)N[C@@H](CCC(=O)O)C(=O)N[C@@H](CCCCN)C(=O)N[C@@H](C)C(=O)N[C@@H](CCCCN)C(=O)N[C@@H](CCC(=O)O)C(=O)N[C@@H](C)C(=O)N[C@@H](C)C(=O)O	–	cynomolgus monkey female, plasma	intravenous infusion, 8 mg/kg every other day, day 27	–	half-life	3.2 h
COC(=O)C[C@](O)(CCCC(C)(C)OC(C)=O)C(=O)O[C@@H]1C(OC)=C[C@]23CCCN2CCc2cc4c(cc2[C@H]13)OCO4	–	CD1 mouse, lung	oral, 1 mg/kg, 24 h, below quantification limit 1.00 ng/mL	–	tissue concentration	not detected
CCCC[C@@H]1NC(=O)[C@H](Cc2ccc(O)cc2)NC(=O)[C@@H]2CCCN2C(=O)[C@H](CC(=O)O)NC(=O)[C@H](C)NC(=O)[C@H](Cc2ccccc2)NC(=O)[C@@H]2CSCCC(=O)N3CN(CN(C3)C(=O)CCSC[C@@H](C(=O)N[C@@H](C)C(N)=O)NC1=O)C(=O)CCSC[C@H](NC(C)=O)C(=O)N[C@@H](CC(C)(C)C)C(=O)N1CCC[C@H]1C(=O)N[C@@H](CCC(=O)O)C(=O)N[C@H](CCCCNC(=O)CCc1cn(CCOCCOCCOCCN(CCOCCOCCOCCC(=O)N[C@H]3CSCCC(=O)N4CN5CN(C4)C(=O)CCSC[C@H](NC(=O)[C@@H](CC(=O)O)NC(=O)[C@H](Cc4cccc6ccccc46)NC(=O)[C@@H]4CCCN4C3=O)C(=O)N[C@@H](CCSC)C(=O)N[C@@H](CCCCNC(=N)N)C(=O)N[C@@H](CC(=O)O)C(=O)N[C@@H](Cc3c[nH]c4ccccc34)C(=O)N[C@@H](CO)C(=O)N[C@@H]([C@@H](C)O)C(=O)N3CCC[C@H]3C(=O)N3C[C@H](O)C[C@H]3C(=O)N[C@@H](Cc3c[nH]c4ccccc34)C(=O)N[C@H](C(N)=O)CSCCC5=O)CCOCCOCCOCCn3cc(CCC(=O)NCCCC[C@H]4NC(=O)[C@H](CCC(=O)O)NC(=O)[C@@H]5CCCN5C(=O)[C@H](CC(C)(C)C)NC(=O)[C@@H](NC(C)=O)CSCCC(=O)N5CN6CN(C5)C(=O)CCSC[C@H](NC(=O)[C@H](Cc5ccc(O)cc5)NC(=O)[C@@H]5CCCN5C4=O)C(=O)N[C@@H](Cc4ccccc4)C(=O)N[C@@H](C)C(=O)N[C@@H](CC(=O)O)C(=O)N4CCC[C@H]4C(=O)N[C@@H](Cc4ccc(O)cc4)C(=O)N[C@@H](CCCC)C(=O)N[C@H](C(=O)N[C@@H](C)C(N)=O)CSCCC6=O)nn3)nn1)C(=O)N1CCC[C@H]1C(=O)N[C@@H](Cc1ccc(O)cc1)C(=O)N2	–	cynomolgus monkey, plasma	intravenous, 1 mg/kg, infusion	–	clearance	3.3 mL/min/kg
CC(C)[C@H](NC(=O)CNC(=O)[C@H](CCC(N)=O)NC(=O)[C@H](C)N)C(=O)O	–	healthy male volunteers	intravenous, 90 mg/kg/h, 2 h, together with: LPS 2 ng/kg	–	subjects with moderate AE	0%
O=C(O)CC[C@H](NC(=O)O[C@@H](CCCCNC(=O)c1ccc([18F])cc1)C(=O)O)C(=O)O	–	mouse, PC-3 PIP/flu xenografts, kidney	180 min	–	tissue uptake	0.5 ± 0.18 %ID/g
CC(c1ccc(Br)cc1)N1CCCC(n2c(=O)[nH]c3cc(Cl)c(Cl)cc32)CC1 (stereo not drawn)	–	male C57BL/6 mouse, brain	intraperitoneal, 3 mg/kg, 1 h	–	concentration	463 nM
CC(C)[C@H](NC(=O)CNC(=O)[C@H](CCC(N)=O)NC(=O)[C@H](C)N)C(=O)O	serious adverse event	human	10 mg/kg, 3 days, thrice daily dosing	–	subjects with adverse events	0%
[2H]C([2H])([2H])C([2H])([2H])C([2H])([2H])OC(C(=O)OC1CCNCC1)(c1ccccc1)c1ccccc1	refers to: diarrhea	healthy Japanese male	oral, 18 mg, 16 days, multiple ascending dose	–	adverse drug reactions	14.3%
CC(C)C[C@H](NC(=O)C[C@H](O)[C@H](CC(C)C)NC(=O)[C@H](Cc1c[nH]cn1)NC(=O)CNC(=O)[C@@H](NC(=O)[C@H](C)NC(=O)[C@H](Cc1c[nH]c2ccccc12)NC(=O)[C@H](CCC(N)=O)NC(=O)[C@@H](Cc1ccccc1)NC(=O)CCNC(=O)CCNC(=O)CN1CCN(CC(=O)O)CCN(CC(=O)O)CCN(CC(=O)O)CC1)C(C)C)C(N)=O [lutetium-177 labelled]	–	mouse, PC-3 xenograft	intraperitoneal, 50 MBq/200 pmol, four doses, with or without protease inhibitor	–	toxicity	not toxic
CC(COC(=O)c1ccccc1)OC(=O)C(N)C(C)C (mixture of isomers)	–	–	pH 6 or lower	–	half-life	> 30 h
O=C1C(P(=O)(O)O)CCCN1O (stereo not drawn)	–	cynomolgus monkey	intravenous, dose not given	baseline: monkey over mouse	half-life ratio	10
CCCCCCCCCCCCC(=O)O.O=C1CCCC2C3CCCN4CCCC(CN12)C34 (stereo not drawn)	shake-flask	simulated gastric fluid	pH 1.2, 25 °C	–	log octanol-water partition coefficient	-0.43
CC[C@H](C)[C@@H]1NC(=O)[C@H](CCCCN)NC(=O)[C@H](CCCCN)NC(=O)[C@H](Cc2ccc(O)cc2)NC(=O)[C@H](CC(C)C)NC(=O)[C@@H]2CCCN2C(=O)[C@H](C)NC(=O)CNC(=O)CNC(=O)[C@H](CO)NC(=O)CNC(=O)CNC(=O)[C@H](CO)NC(=O)[C@H](CCC(=O)O)NC(=O)[C@H](CC(C)C)NC(=O)[C@H](CC(C)C)NC(=O)[C@H](CCCCN)NC(=O)[C@H](CCCNC(=N)N)NC(=O)[C@H]([C@@H](C)CC)NC(=O)[C@H]([C@@H](C)CC)NC(=O)[C@H](CCCCN)NC(=O)[C@H](CCCCN)NC(=O)[C@H](Cc2ccc(O)cc2)NC(=O)[C@H](CC(C)C)NC(=O)[C@@H]2CCCN2C(=O)CNC(=O)CNC(=O)[C@@H](NC(=O)CN)CSSC[C@@H](C(N)=O)NC(=O)[C@H](CC(C)C)NC(=O)[C@H](CCCCN)NC(=O)[C@H](CCCNC(=N)N)NC(=O)[C@H]([C@@H](C)CC)NC1=O	–	25% human serum	50 µM, 24 h	baseline: 0 h control	remaining intact peptide	5.6 ± 0.2%
CC[C@H](C)[C@H](NC(=O)[C@H](Cc1ccccc1)NC(=O)[C@H](CC(=O)O)NC(=O)[C@@H]1CCNC(=O)NCCC[C@H](NC(=O)[C@H](CC(C)C)NC(=O)[C@H](CCCNC(=N)N)NC(=O)[C@H](CCSC)NC(=O)[C@H](C)N)C(=O)N[C@@H](CCCCN)C(=O)N[C@@H](Cc2ccccc2)C(=O)N[C@@H](Cc2ccccc2)C(=O)N1)C(=O)N[C@@H](CC(C)C)C(=O)N[C@@H](CCC(N)=O)C(=O)N[C@@H](CCCNC(=N)N)C(=O)N[C@@H](CCCCN)C(=O)N[C@@H](CCCCN)C(=O)O	circular dichroism	20% TFE in PBS	200 µM, pH 7.4, 25 °C	–	helicity	18.5%
CC(=CCC(O)C(C)=Cc1csc(C)n1)CC=CC(C)C(O)C(C)C(=O)C(C)(C)C(O)CC(=O)O (stereo not drawn)	–	human, plasma	intravenous infusion, 15.0 mg/m2 KOS-1584, 3 h infusion, cycle 1	baseline: metabolite over KOS-1584	AUC ratio	9.75 ± 2.55%
CN(C)C(CNC(=O)Nc1cc(C(F)(F)F)ccc1N1CCOCC1)c1ccncc1 (stereo not drawn)	–	mouse, serum	intraperitoneal, 120 mg/kg single dose	–	serum osmolarity	314 mmol/L
N=C(N)NCCC[C@@H](NC(=O)[C@H](N)Cc1c[nH]c2ccccc12)C(=O)N[C@H](CCCCN)C(=O)N[C@H](Cc1c[nH]c2ccccc12)C(=O)N[C@H](CCCNC(=N)N)C(=O)N[C@H](CCCCN)C(=O)N[C@H](Cc1c[nH]c2ccccc12)C(=O)N[C@H](CCCNC(=N)N)C(=O)N[C@H](CCCCN)C(=O)N[C@H](Cc1c[nH]c2ccccc12)C(=O)N[C@H](CCCNC(=N)N)C(=O)N[C@H](CCCCN)C(N)=O	–	mouse	intraperitoneal, 40 mg/kg single dose	–	mortality	25%
[3H]c1sc(C)nc1C=C(C)C1CC2C(CCCC(C)C(O)C(C)C(=O)C(C)(C)C(O)CC(=O)O1)N2CCO (stereo not drawn)	LC-MS/MS	CD2F1 mice tumour-bearing, kidney	intravenous, 2.2 nmol/kg, 2 h	–	tissue concentration	3360 ± 90 ng/g

A few entries again:
Compound	assay	test system	conditions	scale	measurement	value
CC(C)[C@H](NC(=O)CNC(=O)[C@H](CCC(N)=O)NC(=O)[C@H](C)N)C(=O)O	serious adverse event	human	10 mg/kg, 3 days, thrice daily dosing	–	subjects with adverse events	0%
[3H]c1sc(C)nc1C=C(C)C1CC2C(CCCC(C)C(O)C(C)C(=O)C(C)(C)C(O)CC(=O)O1)N2CCO (stereo not drawn)	LC-MS/MS	CD2F1 mice tumour-bearing, kidney	intravenous, 2.2 nmol/kg, 2 h	–	tissue concentration	3360 ± 90 ng/g
